Experimental data from different studies.
Parts stem from different laboratories: compare values within a part only. Substitutions count along the parent as printed.

Sample 1
Target: RING finger protein unkempt homolog, zinc fingers 1-6, GST-SBP tag (UNK, Homo sapiens, UniProt Q9C0B0, residues 30-357)
Method: RNA Bind-n-Seq
Form: RNA
Medium: in vitro
Tested at: not given
Setting: RNA with constant flanks, ends assumed
Reference: input RNA pool
Direction: higher = stronger binding
Endpoint: bound/input enrichment
Shared flanks, not repeated: GGGAGUUCUACAGUCCGACGAUC … CAACAGAGGAUUGAGCAUCA
Target sequence (chain): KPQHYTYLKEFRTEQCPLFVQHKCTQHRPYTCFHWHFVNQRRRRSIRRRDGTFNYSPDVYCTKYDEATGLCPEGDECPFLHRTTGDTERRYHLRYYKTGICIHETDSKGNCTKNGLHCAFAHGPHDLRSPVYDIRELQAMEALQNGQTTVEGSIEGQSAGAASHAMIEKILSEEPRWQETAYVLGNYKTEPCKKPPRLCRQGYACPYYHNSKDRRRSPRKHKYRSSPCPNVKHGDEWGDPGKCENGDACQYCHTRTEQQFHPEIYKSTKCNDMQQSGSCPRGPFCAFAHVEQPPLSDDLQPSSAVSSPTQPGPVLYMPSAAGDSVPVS
Strand = AGAAAAUUGUGCUACUGUGUGUGCGUGUGCGUGCGUGUGUGUAGUGCUAGGAGUCCACAGCCGGUCUCUGUCAAGCCGAUGUCGUGAUGAGGGCUUUUCUGAUACUGACCCAGAAGCCAC; result = 0.143 ratio
Strand = UGCACAGACCUCCUGAAUAAGGCCAACACGUAUGCAGAACAACAUUUUGCAGAUGUCGUACUCCGUGAAGAGUUUCUUAACCUCGGCAUCGAGCAGGUGUGCAGCUUAAUCUCCAGUGAU; result = 0.079 ratio
Strand = GUAAAGGAAGAUGAAGAAGAAGUUUCAGAUAAGGGCAGUGAUUCUGAAGAAGAAGAAACCAACCGAGAUUCCCAAAGUGAGAAAGAUGAUGGUAGUGACAGAGACUCUGAUAGAGAGCAA; result = 0.723 ratio
Strand = AUGGAACAAGGAAAAUAAGGCCUAAGCCAGCAUCCCCAGGUUGCCACAGCCCAUCCUUCACCGCAGGAAAAUAAGGCCUAAGCCAGCAUCCCCAGGUUGCCACAGCCCAUCCUUCAAGCA; result = 0.116 ratio
Strand = UAUCAUAAUGUGUAUACUCGAGAUCCUAAUUAUCUCAAUUUGUUCAUUAUUGUAAUGGAGAACCGUAAUCUCCACAGUCCUGAAUAUCUGGAAAUGGCGUUGCCAUUAUUUUGCAAAGCU; result = 0.267 ratio
Strand = GCUGAAGUACCACACAUCAGAGAGAGAGUGAUGAGAGAGGGGCGCCACCUGUGCUUCCAGUCCGUAAGCCCAUUGGGAGUAGCCAUUUCUACUCUGAGUUACAUCAACAGGACAAAUCAG; result = 0.0987 ratio
Strand = CUAUAAAGGCAGCGCCCCGGAGAGCUCUUGCGCGUCUUGUUCUUGCCUGGUGUCGGUGGUCCGUUUCUGCGACUUGUGUUGGGACUGCUGAUAGGAAGAUGUCUUCAGGAAAUGCUAAAA; result = 0.126 ratio
Strand = CUUUUAUGCGACCAUUGUUGCAGUGGUCGGGCUUCAUGUGGUGCUGGCAAUUUUCGUCUUCACCGUGUGGAAGGAGGGCUUGCCCCAGUGGCGGGAAAACAAAAACGAAUAGAGCAGCUU; result = 0.347 ratio
Strand = UACCAGGGAAUCUGGAAACCAAGGAAAAUACCAAAUCCAGAUUUCUUUGAAGACCCCGAACCUUUUAAGAUGACUCCUUUCAGUGCUAUUGGUUUGGAGCUCUGGUCCAUGACAUCCGAC; result = 0.0873 ratio
Strand = GAGCCCUAUGGCUUCCGUGCCUCAGUGUUAUUCGAUACAAUGCAACACCAUCUAGCCUUGAACCGAGAUUUGUCCACACCUGGCCUGGAGAAGGACAGUGGAGGGAAGACACCUGGUGAC; result = 0.221 ratio

Sample 2
Target: CCND3, cyclin fold, Cln2 fusion (human)
Method: yeast growth competition, sequencing
Medium: yeast
Setting: weak parent motif
Reference: not given
Direction: higher = stronger binding
Endpoint: normalised enrichment score
Starting sequence: WEE1 docking peptide (human); HKTFRKLRLFDTP; partner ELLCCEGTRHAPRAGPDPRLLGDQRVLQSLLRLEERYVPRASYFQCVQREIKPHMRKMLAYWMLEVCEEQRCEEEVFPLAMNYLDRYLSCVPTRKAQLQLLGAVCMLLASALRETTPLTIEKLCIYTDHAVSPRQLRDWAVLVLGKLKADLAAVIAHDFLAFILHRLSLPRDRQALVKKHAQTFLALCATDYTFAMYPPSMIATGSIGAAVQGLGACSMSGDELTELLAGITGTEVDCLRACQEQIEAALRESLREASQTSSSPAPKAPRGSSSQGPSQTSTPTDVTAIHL
Change = P13H; result = 0.0493
Change = T12S; result = 0.085
Change = R5W; result = 0.105
Change = R8T; result = 0.158
Change = L9D; result = 0.0382
Change = L7Y; result = 0.156
Change = D11M; result = 0.129
Change = T3R; result = 0.101

Sample 3
Target: Histone acetyltransferase KAT6A, winged helix 1, GST fusion (KAT6A, Homo sapiens, UniProt Q92794, residues 1-85)
Method: protein binding microarray
Form: double-stranded DNA, one strand shown
Medium: in vitro
Tested at: not given
Setting: 8-mer, flanks averaged, mean of 2 arrays, mostly near background
Reference: not given
Direction: higher = stronger binding
Endpoint: E-score
Target sequence (chain): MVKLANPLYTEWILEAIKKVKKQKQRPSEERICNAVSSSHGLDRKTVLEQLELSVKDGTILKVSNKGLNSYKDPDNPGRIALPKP
Strand = AGACCAGA; result = -0.25
Strand = GAGTGGCA; result = -0.0928
Strand = ATCCCGAT; result = -0.164
Strand = GGGGCTGA; result = -0.00114
Strand = AATCTAGT; result = -0.193
Strand = ACTAGCGG; result = 0.304
Strand = AACTGCGG; result = 0.316
Strand = CAAGGGCA; result = -0.146

Other studies, line by line
Molecule = PhoQ, residues 284 288 289 292 302 303 SMYGEC; target = PhoP, residues 12 14 15 18 19 STHWV (Escherichia coli, UniProt P23836); assay = Sort-seq, item: YFP reporter; system = E. coli; setting = PhoQ-PhoP variant library, together with: 10 µM Mg2+; scale = reference: high Mg2+ state, higher = stronger signaling; endpoint = fold induction; result = 5.54

A few entries again (sample 3):
Strand = CAAGGGCA; result = -0.146
Strand = AATCTAGT; result = -0.193
